Experimental data of several laboratories.
Parts stem from different laboratories: compare values within a part only. Changes are numbered by the printed parent chain.

Study 1
Target: ABI1, truncated, D143A, DHFR fusion (Arabidopsis thaliana)
Method: DHFR PCA, deep sequencing
Medium: yeast
Notes: methotrexate growth selection, single substitutions
Added: (+)-ABA 17 µM
Reference: wild-type fitted maximum
Reading: higher = stronger binding
Parent: PYL1, truncated, DHFR fusion (Arabidopsis thaliana); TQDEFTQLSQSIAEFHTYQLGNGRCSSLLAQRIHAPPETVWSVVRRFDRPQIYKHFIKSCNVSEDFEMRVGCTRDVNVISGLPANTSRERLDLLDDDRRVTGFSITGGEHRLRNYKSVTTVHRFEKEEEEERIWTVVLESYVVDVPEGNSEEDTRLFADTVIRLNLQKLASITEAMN; partner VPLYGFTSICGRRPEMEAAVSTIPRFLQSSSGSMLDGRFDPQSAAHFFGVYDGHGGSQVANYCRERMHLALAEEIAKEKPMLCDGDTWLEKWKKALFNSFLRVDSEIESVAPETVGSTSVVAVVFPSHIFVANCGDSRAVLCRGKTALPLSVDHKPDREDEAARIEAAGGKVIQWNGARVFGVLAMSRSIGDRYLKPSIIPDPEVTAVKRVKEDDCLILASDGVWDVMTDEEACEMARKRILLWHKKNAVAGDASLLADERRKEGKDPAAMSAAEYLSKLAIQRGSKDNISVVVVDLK
Variant	relative binding score [%]
R88T	88
R99P	-24.2
L112C	22.5
N77W	74.2
H16A	-13.7
I12K	37.1
H55T	91.9
I172Q	38.4
R132I	79.2
Q10K	85.9
T73V	90
R88L	80
I79M	70.8
R90I	44.9
F5A	72.1
S59M	46.2
L93S	48.6
V118S	18.9
R90M	52.2

Study 2
Target: Sal-like protein 4, full length isoform B (SALL4, Homo sapiens, UniProt Q9UJQ4-2, residues 1-616)
Method: universal PBM
Form: double-stranded DNA, one strand shown
Medium: in vitro
Concentration: not given
Notes: 8-mer, flanks averaged, mean of replicates
Reading: higher = stronger binding
Strand	E-score
GTCCCAGA	-0.233
GTAACAGA	0.106
GAGGGGGA	-0.223
AATCCACC	-0.0156
ACAAGTGA	0.0884
CGACGTAA	0.0552
CCGTTCAG	-0.214
CTGCCCCA	-0.145
AAAAGGAA	0.0633
GAGAATAC	0.103
ACCCTGCT	-0.068
ATCACGAC	-0.0166
TAATCGGA	0.0826
AATGATTC	0.324
AAGGAATC	-0.106
AGGCAATA	0.182
CTTATATC	0.32
ATATGCAT	0.332
CACTACAG	-0.056
CGGCCAAG	-0.244
CTATCTAC	0.0649
AGTGAGAG	-0.0279
TTCATAAA	0.432

Study 3
Target: CCNB1, cyclin fold, Cln2 fusion (human)
Method: yeast growth competition, sequencing
Medium: yeast
Notes: strong parent motif
Reference: not given
Reading: higher = stronger binding
Parent: INSM1 docking peptide (human); PKAIRKLHFEDEV
Variant	normalised enrichment score
D11Y	0.829
K2C	4.16
L7E	-0.0834
E12T	1.3
D11L	0.944
I4F	1.26
K2D	3.69
E12Q	1.05
A3F	2.31
F9E	0.0681
I4D	0.484
F9P	0.326
E10R	1.03
H8F	2.36
I4S	0.726
D11K	0.959
K2S	4.22
E10V	0.925
F9T	0.0557
L7N	0.0981
R5S	0.712
D11P	1.11
R5H	0.487
E10Y	1.52
F9A	-0.158

Study 4
Target: Fragile X messenger ribonucleoprotein 1, C-terminal low-complexity region (Fmr1, Mus musculus, UniProt P35922)
Method: RNA Bind-n-Seq
Form: RNA
Medium: in vitro
Concentration: 200 nM
Notes: whole 134-nt RNA, ends assumed
Added: 150 mM KCl
Reference: input library
Reading: higher = stronger binding
All sequences stand within: GGGAGUUCUACAGUCCGACGAUC … UGGAAUUCUCGGGUGUCAAGG
Strand	log2 enrichment
GCAGGAAGUAAAAACAAAUGGAAAUGCUUCGGAUAGUGGCAGUGGUGGGGGUUGCUAAGGAAAGGGUGGGAUGGGAGUGGGUAAAGAGUU	-0.132
UCCUCAAGUCCUGUGCUACACAUCGUAUGUACCGAAUCGGCGGGCGGCGGGAAAGUAUUAUGUUACGCCGUUCGGAUCUGCACUUCCAGC	-0.191
UGGCCCUGGUGGCAUGCGGGGAGGAAGAGGUGGCCUCAUGGAUCGUGGUAGUCCCGGUGGAAUGUUCAGAGGUGGCCGUGGUGGAGACAG	0.179
AAGUCCUGUGCUACACAUCGUAUGUACCGAAUCGGGGUGGGGAAAAAGGGGAGGGGAAAGUAUUAUGUUACGCCGUUCGGAUCUGCACUU	0.785
UCCUCAAGUCCUGUGCUACACAUCGUAUGUACCGAAUCGGUGGUUUGGUGGAAAGUAUUAUGUUACGCCGUUCGGAUCUGCACUUCCAGC	-0.388
UCAAGUCCUGUGCUACACAUCGUAUGUACCGAAUCGGUUUUUGGAGGAAAAAGGAAAGUAUUAUGUUACGCCGUUCGGAUCUGCACUUCC	-0.602
AAGUCCUGUGCUACACAUCGUAUGUACCGAAUCGGAAAAAGGAAAAAGGAAAAAGGAAAGUAUUAUGUUACGCCGUUCGGAUCUGCACUU	-0.99
GUCCUGUGCUACACAUCGUAUGUACCGAAUCGGGUUUUUUUGGGAAAAAAAGGGUGGGAAAGUAUUAUGUUACGCCGUUCGGAUCUGCAC	0.0933
AGUCCUGUGCUACACAUCGUAUGUACCGAAUCGGGGUUUUUGGGGAAAGGGGAGGGGAAAGUAUUAUGUUACGCCGUUCGGAUCUGCACU	0.423
CUCAAGUCCUGUGCUACACAUCGUAUGUACCGAAUCGGGGCGGGGCGGGCGGGAAAGUAUUAUGUUACGCCGUUCGGAUCUGCACUUCCA	1.01
ACCAUGCAGGUGGGCAUCUUUGGGAAGUGGGGCAAGGGGGGGAUAGGGAGGGGGGUAACACUUUGGGAACAGGUGGUCCCAGGUCGUCUC	0.801
UUGUGGAAAACCCACAUGCUCCUCAGAAAGAUGAUGCCCUGGUGAUCACACACUACAACCGGACCCGACAGCAGGAAGAGAUGCUGGGGC	-0.125
CUCAAGUCCUGUGCUACACAUCGUAUGUACCGAAUCGGAAAGGUGGAAAAAGGAAAGUAUUAUGUUACGCCGUUCGGAUCUGCACUUCCA	-0.35
UGAAGGCGCGGCCCUUCCCCGACGGCCUGGCCGAGGACAUCGAUAAAGGCGAGGUGUCCGCCCGUCAGGAGCUCAAGCAGCGGGCGCGCU	-0.299

Study 5
Target: Interferon regulatory factor 7, full length, phosphomimetic (IRF7, Homo sapiens, UniProt Q92985, residues 1-503, S101K/S471D/S472D/S475D/S476D/S477D/S483D/S484D/S487D)
Method: protein-binding microarray
Form: double-stranded DNA, one strand shown
Medium: in vitro
Concentration: 250 nM
Notes: 60-bp whole probe
Added: salmon DNA 0.4 mg/ml
Reference: random background probes
Reading: higher = stronger binding
All sequences stand within: GCCTAGCAC … GTCTTGATTCGCTTGACGCTGCTG
Residues (chain): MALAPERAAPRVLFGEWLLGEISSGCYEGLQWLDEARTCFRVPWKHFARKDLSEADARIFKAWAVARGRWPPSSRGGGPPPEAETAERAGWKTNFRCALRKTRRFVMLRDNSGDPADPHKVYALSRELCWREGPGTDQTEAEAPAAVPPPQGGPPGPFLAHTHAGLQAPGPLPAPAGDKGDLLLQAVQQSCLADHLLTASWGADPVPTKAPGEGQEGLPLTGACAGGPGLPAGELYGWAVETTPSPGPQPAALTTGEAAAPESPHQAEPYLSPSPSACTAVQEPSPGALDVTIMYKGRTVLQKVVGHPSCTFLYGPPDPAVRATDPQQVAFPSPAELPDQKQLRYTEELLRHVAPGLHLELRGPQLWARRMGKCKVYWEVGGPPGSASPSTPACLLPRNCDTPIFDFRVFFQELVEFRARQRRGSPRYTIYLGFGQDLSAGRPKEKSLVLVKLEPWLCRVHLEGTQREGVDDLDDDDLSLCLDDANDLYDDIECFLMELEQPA
Strand	log fluorescence [z-score]
GACGCTCTCGGTATCGGGACGTGCTAG	0.639
GACGGTTTCGGTTTCGGGACGTGCTAG	13.7
GACGGTATCGGTGTCGGGACGTGCTAG	-0.291
TTAGGTCTCGGTCTCGGTTAGTGCTAG	2.38
GTGTATATGTGATTAAAATAGTGCTAG	0.268
GACAGACTGCTACTGCTGACGTGCTAG	-0.963
CAGCCAATCAGGACTCAGGGAGTGCTA	-0.711
GATGGTATCGACACTGGGGACGTGCTA	-0.335
TTAGGTATCGGGATTCGGTTAGTGCTA	2.31
TCACACCTCTAGACTCTAACTGTGCTA	-0.121
GACGATACCAGACTGGAGACGTGCTAG	-0.254
GACGAACTGAGACTGGAGAGGTGCTAG	-0.321
GACGGTCTCGGTTTCTGGACGTGCTAG	6.66
TCATAAACCATTTTGGTACTGTGCTAG	0.167
ATAGGTATCGACTTTCGGTTAGTGCTA	3.12
TCATAACTCAAGATTCCTACTGTGCTA	0.264
TCACATTGCCTGTTTTTCACTGTGCTA	0.463
TATGGTATTTTTTTCTAATTGTGCTAG	1.33
TTAGGTCTCGGGTATCGGTTAGTGCTA	2.3
GACGATTTCATACTGGAGACGTGCTAG	0.114
GACGGACTGGACTATCGGCACGTGCTA	-0.87
TCATTTCTCTGGTTCTTACTGTGCTAG	2.57
TCACCTCTGGGATCCCAGACTGTGCTA	0.0318
TTGGAACTGGGGTTTCGATTAGTGCTA	5.41

For quick reference, copied from above (study 4):
Strand	log2 enrichment
ACCAUGCAGGUGGGCAUCUUUGGGAAGUGGGGCAAGGGGGGGAUAGGGAGGGGGGUAACACUUUGGGAACAGGUGGUCCCAGGUCGUCUC	0.801
AAGUCCUGUGCUACACAUCGUAUGUACCGAAUCGGGGUGGGGAAAAAGGGGAGGGGAAAGUAUUAUGUUACGCCGUUCGGAUCUGCACUU	0.785
UGGCCCUGGUGGCAUGCGGGGAGGAAGAGGUGGCCUCAUGGAUCGUGGUAGUCCCGGUGGAAUGUUCAGAGGUGGCCGUGGUGGAGACAG	0.179
UCCUCAAGUCCUGUGCUACACAUCGUAUGUACCGAAUCGGCGGGCGGCGGGAAAGUAUUAUGUUACGCCGUUCGGAUCUGCACUUCCAGC	-0.191
UUGUGGAAAACCCACAUGCUCCUCAGAAAGAUGAUGCCCUGGUGAUCACACACUACAACCGGACCCGACAGCAGGAAGAGAUGCUGGGGC	-0.125
AAGUCCUGUGCUACACAUCGUAUGUACCGAAUCGGAAAAAGGAAAAAGGAAAAAGGAAAGUAUUAUGUUACGCCGUUCGGAUCUGCACUU	-0.99
UCAAGUCCUGUGCUACACAUCGUAUGUACCGAAUCGGUUUUUGGAGGAAAAAGGAAAGUAUUAUGUUACGCCGUUCGGAUCUGCACUUCC	-0.602
GCAGGAAGUAAAAACAAAUGGAAAUGCUUCGGAUAGUGGCAGUGGUGGGGGUUGCUAAGGAAAGGGUGGGAUGGGAGUGGGUAAAGAGUU	-0.132
GUCCUGUGCUACACAUCGUAUGUACCGAAUCGGGUUUUUUUGGGAAAAAAAGGGUGGGAAAGUAUUAUGUUACGCCGUUCGGAUCUGCAC	0.0933
AGUCCUGUGCUACACAUCGUAUGUACCGAAUCGGGGUUUUUGGGGAAAGGGGAGGGGAAAGUAUUAUGUUACGCCGUUCGGAUCUGCACU	0.423
